# Measurements from different studies.
# Protocols differ between the studies behind these lines. Several values in a cell are separate wells, animals, samples, runs or records. ± marks the error that the study gave.
Structure (SMILES),organism,test,system,conditions,EC50
CC(C)c1oc2nc(N3CCCC3)ccc2c1C(=O)O,Trypanosoma cruzi,,"3T3 host cells, Tulahuen beta-galactosidase",6 days,> 20 µM
CCOC(=O)[C@@H](C)NP(=O)(CO[C@H](CF)Cn1cnc(N)nc1=O)N[C@H](C)C(=O)OCC,human cytomegalovirus,cytopathic effect,"HEL, Davis",,> 100 µM
CN(C)Cc1c(-c2ccc(F)c(F)c2)nc2ccccn12,Trypanosoma cruzi,,"3T3 host cells, Tulahuen beta-galactosidase",6 days,> 20 µM
COc1ccc(-c2cn([C@H]3C[C@H](O)[C@@H](CO)O3)c3ncnc(N)c23)cc1,Trichomonas vaginalis,resorufin,"G3, metronidazole-sensitive","24 h + 2 h, 2% O2",1.41 ± 0.34 µM
CC1=C[C@H](O/C=C2/C(=O)O[C@@H]3c4ccccc4C[C@H]23)OC1=O,Phelipanche ramosa,seed germination,,,6.5e-06 µM
Cc1n[nH]c(=O)c2nn(-c3ccccc3)c(C)c12,Zika virus,"viral replication, immunofluorescence","Vero, MR766",24 h,697.5 ± 4.9 µM
O=C1C=C[C@H](O/C=C2/C(=O)O[C@@H]3c4ccccc4C[C@H]23)O1 (racemic),Phelipanche ramosa,seed germination,,,0.00045 µM
CC1CCN(Cc2cc(/C=C/C(=O)c3ccc(F)cc3)ccc2O)CC1,Plasmodium knowlesi,parasite growth,,"24 h, blood stage",12 µM
Nc1ncnc2c1c(-c1ncc(Cl)cn1)cn2[C@@H]1O[C@H](CO)[C@@H](O)[C@H]1O,Trichomonas vaginalis,resorufin,"G3, metronidazole-sensitive","24 h + 2 h, 2% O2",0.86 ± 0.136 µM
COc1ccc(-n2nc3c(=O)n(-c4cccc(C(=O)NC(C)C)c4)nc(C)c3c2C)cc1,Zika virus,"viral replication, immunofluorescence","Vero, MR766",24 h,105 ± 4.6 µM
CC1COCCN1c1nc(NCc2cccnc2C(F)(F)F)c2cccnc2n1 (centres unmarked),Wolbachia pipientis,"infected cells, high-content imaging","C6/36 cells, wAlbB",,0.0026 ± 0.0005 µM
C=C(C)[C@@H]1CCC=C2CC[C@]3(C)[C@H](CC[C@@H]4[C@@]5(C)CCCNC(C)(C)[C@@H]5CC[C@]43C)[C@H]21,Human cytomegalovirus,cytopathic effect,"HFF, AD169",,> 6 µM
O=C1OC2(c3ccccc31)c1cc([N+](=O)[O-])c(O)c(Br)c1Oc1c2cc([N+](=O)[O-])c(O)c1Br,Zika virus,"viral replication, plaque reduction","A549, PRVABC59",,> 15 µM
CCOC(=O)c1c(C(C)C)oc2nc(N3CCOCC3)ccc12,Trypanosoma cruzi,,"3T3 host cells, Tulahuen beta-galactosidase",6 days,4.81 µM
Nc1ncnc2c1c(-c1ccc(Cl)c(Cl)c1)cn2[C@H]1C[C@H](O)[C@@H](CO)O1,Trichomonas vaginalis,resorufin,"G3, metronidazole-sensitive","24 h + 2 h, 2% O2",0.42 ± 0.057 µM
CC1(C)NCCC[C@]2(C)[C@H]3CC=C4[C@@H]5C[C@@](C)(CO)CC[C@]5(C)CC[C@@]4(C)[C@]3(C)CC[C@@H]12,Human cytomegalovirus,cytopathic effect,"HFF, AD169",,0.11 µM
Nc1ncnc2c1c(-c1ccc(F)c(F)c1)cn2[C@@H]1O[C@H](CO)[C@@H](O)[C@H]1O,Trichomonas vaginalis,resorufin,"G3, metronidazole-sensitive","24 h + 2 h, 2% O2",0.25 ± 0.025 µM
Nc1ccn(C[C@@H](CO)OCP(=O)(O)OCCCS(=O)(=O)CCCCCCCCCCCCC2CCC2)c(=O)n1,JC polyomavirus,qPCR,"COS-7, MAD-4",7 days,0.05 ± 0.03 µM
COC(=O)c1cccc(-n2nc(C)c3c(C)n(-c4ccc(OC)cc4)nc3c2=O)c1,Zika virus,"viral replication, immunofluorescence","Vero, MR766",24 h,161 ± 9.1 µM
CCOC(=O)[C@@H](C)NP(=O)(CO[C@H](CF)CN1CNC(N)=NC1=O)N[C@H](C)C(=O)OCC,human cytomegalovirus,cytopathic effect,"HEL, Davis",,> 100 µM
CCOC(=O)c1c(C)oc2nc(N3CCOCC3)ccc12,Trypanosoma cruzi,,"3T3 host cells, Tulahuen beta-galactosidase",6 days,17.4 µM
Nc1ncnc2c1c(-c1cccc(F)c1)cn2[C@@H]1O[C@H](CO)[C@@H](O)[C@H]1O,Trichomonas vaginalis,resorufin,"G3, metronidazole-sensitive","24 h + 2 h, 2% O2",1.52 ± 0.029 µM
Cc1nn(-c2cccc(C(=O)NC(C)C)c2)c(=O)c2nn(-c3ccccc3)c(C)c12,Zika virus,"viral replication, immunofluorescence","Vero, MR766",24 h,87.2 ± 7.3 µM
CCc1ccc(-c2cn([C@@H]3O[C@H](CO)[C@@H](O)[C@H]3O)c3ncnc(N)c23)cc1,Trichomonas vaginalis,resorufin,"G3, metronidazole-sensitive","24 h + 2 h, 2% O2",0.19 ± 0.037 µM
COc1ccc(-n2nc3c(=O)n(Cc4cccc([N+](=O)[O-])c4)nc(C)c3c2C)cc1,Zika virus,"viral replication, immunofluorescence","Vero, MR766",24 h,25.6 ± 2.8 µM
CC1(C)CC[C@]2(CO)CC[C@]3(C)C(=CC[C@@H]4[C@@]5(C)CCCNC(C)(C)[C@@H]5CC[C@]43C)[C@@H]2C1,Human cytomegalovirus,cytopathic effect,"HFF, AD169",,> 1.2 µM
O=C(Nc1cc2nc(-c3ccccc3)cn2cn1)c1ccc(F)c(F)c1,Trypanosoma cruzi,,"3T3 host cells, Tulahuen beta-galactosidase",6 days,~10 µM and 10.5 µM
Nc1ccn(C[C@@H](CO)OCP(=O)(O)OCCCS(=O)(=O)CCCCCCCCCCC2CCC2)c(=O)n1,JC polyomavirus,qPCR,"COS-7, MAD-4",7 days,0.075 ± 0.007 µM
O=C(Nc1cc2nc(-c3ccccc3)cn2cn1)Oc1ccc([N+](=O)[O-])cc1,Trypanosoma cruzi,,"3T3 host cells, Tulahuen beta-galactosidase",6 days,> 20 µM
C=C(C)[C@@H]1CC[C@]2(CO)CC[C@]3(C)[C@H](CC[C@@H]4[C@@]5(C)CCCNC(C)(C)[C@@H]5CC[C@]43C)[C@@H]12,Human cytomegalovirus,cytopathic effect,"HFF, AD169",,0.15 µM
Cc1cc(Cl)cc(-c2cn([C@@H]3O[C@H](CO)[C@@H](O)[C@H]3O)c3ncnc(N)c23)c1,Trichomonas vaginalis,resorufin,"G3, metronidazole-sensitive","24 h + 2 h, 2% O2",23.5 ± 0.41 µM
COc1ccc(S(=O)(=O)NCc2c[nH]nc2-c2cccs2)cc1,Plasmodium falciparum,"parasite growth, SYBR Green",3D7,"72 h, blood stage",0.49 µM
C[N+](C)(CC(=O)Nc1cccc(C(F)(F)F)c1)CC(=O)Nc1cccc(C(F)(F)F)c1,Zika virus,"viral replication, inhibitor, luciferase",Huh-7,,0.022 µM
C=C(C)[C@@H]1CC[C@]2(COS(=O)(=O)c3ccc(C)cc3)CC[C@]3(C)[C@H](CC[C@@H]4[C@@]5(C)CCCNC(C)(C)[C@@H]5CC[C@]43C)[C@@H]12,Human cytomegalovirus,cytopathic effect,"HFF, AD169",,> 1.2 µM
c1ccc(-c2nc(-c3ccc4ccccc4c3)c[nH]2)cc1,Schistosoma mansoni,worm killing,male worms,,> 100 µM
Nc1ccn(C[C@@H](CO)OCP(=O)(O)OCCCS(=O)(=O)CCCCCCCCCCCCCC2CCC2)c(=O)n1,JC polyomavirus,qPCR,"COS-7, MAD-4",7 days,0.07 ± 0.05 µM
CC1(C)NCCC[C@]2(C)[C@H]3C=CC4=C5C[C@@](C)(CO)CC[C@]5(C)CC[C@@]4(C)[C@]3(C)CC[C@@H]12,Human cytomegalovirus,cytopathic effect,"HFF, AD169",,> 30 µM
CCOC(=O)c1c(C(C)C)oc2nc(N3CCCC3)ccc12,Trypanosoma cruzi,,"3T3 host cells, Tulahuen beta-galactosidase",6 days,4.5 µM
Nc1ncnc2c1c(-c1ccc(F)c(Cl)c1)cn2[C@@H]1O[C@H](CO)[C@@H](O)[C@H]1O,Trichomonas vaginalis,resorufin,"G3, metronidazole-sensitive","24 h + 2 h, 2% O2",0.34 ± 0.062 µM
CCOC(=O)c1c(C)oc2ncc(N3CC[C@H](F)C3)cc12,Trypanosoma cruzi,,"3T3 host cells, Tulahuen beta-galactosidase",6 days,18.9 µM
COc1ccc(-n2nc3c(=O)n(Cc4cccc(NC(C)=O)c4)nc(C)c3c2C)cc1,Zika virus,"viral replication, immunofluorescence","Vero, MR766",24 h,124 ± 4.6 µM

# For quick reference, copied from above:
Structure (SMILES),organism,test,system,conditions,EC50
CCOC(=O)[C@@H](C)NP(=O)(CO[C@H](CF)Cn1cnc(N)nc1=O)N[C@H](C)C(=O)OCC,human cytomegalovirus,cytopathic effect,"HEL, Davis",,> 100 µM
CN(C)Cc1c(-c2ccc(F)c(F)c2)nc2ccccn12,Trypanosoma cruzi,,"3T3 host cells, Tulahuen beta-galactosidase",6 days,> 20 µM
COc1ccc(-c2cn([C@H]3C[C@H](O)[C@@H](CO)O3)c3ncnc(N)c23)cc1,Trichomonas vaginalis,resorufin,"G3, metronidazole-sensitive","24 h + 2 h, 2% O2",1.41 ± 0.34 µM
CC1=C[C@H](O/C=C2/C(=O)O[C@@H]3c4ccccc4C[C@H]23)OC1=O,Phelipanche ramosa,seed germination,,,6.5e-06 µM
Cc1n[nH]c(=O)c2nn(-c3ccccc3)c(C)c12,Zika virus,"viral replication, immunofluorescence","Vero, MR766",24 h,697.5 ± 4.9 µM
O=C1C=C[C@H](O/C=C2/C(=O)O[C@@H]3c4ccccc4C[C@H]23)O1 (racemic),Phelipanche ramosa,seed germination,,,0.00045 µM
